Experimental data of several laboratories.
Compare with care: the assays were run in different laboratories. ± marks the error that the study gave.
Oprk1: Kappa-type opioid receptor (Oprk1, Rattus norvegicus, UniProt P34975)
Sequence of UniProt P34975 (whole entry, looked up): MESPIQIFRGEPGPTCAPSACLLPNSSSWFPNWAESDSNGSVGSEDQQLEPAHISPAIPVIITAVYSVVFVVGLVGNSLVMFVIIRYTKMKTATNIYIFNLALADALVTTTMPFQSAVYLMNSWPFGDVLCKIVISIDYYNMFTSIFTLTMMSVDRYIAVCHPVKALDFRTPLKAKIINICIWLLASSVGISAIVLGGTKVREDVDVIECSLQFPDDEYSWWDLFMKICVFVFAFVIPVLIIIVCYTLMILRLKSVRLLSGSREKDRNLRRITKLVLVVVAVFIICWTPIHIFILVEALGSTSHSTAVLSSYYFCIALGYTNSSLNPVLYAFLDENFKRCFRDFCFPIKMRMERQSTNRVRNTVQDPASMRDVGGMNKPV
ampC: Beta-lactamase (ampC, Escherichia coli K-12, UniProt P00811)
Sequence of UniProt Q13131 (whole entry, looked up): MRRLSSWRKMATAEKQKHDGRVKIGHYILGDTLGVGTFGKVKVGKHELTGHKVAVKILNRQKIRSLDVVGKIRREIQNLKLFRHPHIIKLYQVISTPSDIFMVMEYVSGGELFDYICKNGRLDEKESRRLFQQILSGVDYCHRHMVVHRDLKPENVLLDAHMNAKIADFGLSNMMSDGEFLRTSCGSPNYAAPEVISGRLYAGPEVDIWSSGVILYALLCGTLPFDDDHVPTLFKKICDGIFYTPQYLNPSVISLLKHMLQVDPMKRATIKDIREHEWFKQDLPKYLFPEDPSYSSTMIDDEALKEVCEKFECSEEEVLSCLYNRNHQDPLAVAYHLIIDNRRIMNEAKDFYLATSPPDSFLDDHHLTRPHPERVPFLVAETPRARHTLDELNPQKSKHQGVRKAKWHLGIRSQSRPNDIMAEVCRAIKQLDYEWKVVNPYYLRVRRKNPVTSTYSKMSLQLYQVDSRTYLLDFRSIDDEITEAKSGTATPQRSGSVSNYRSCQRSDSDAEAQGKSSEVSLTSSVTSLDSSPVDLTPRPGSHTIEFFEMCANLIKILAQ
Sequence of UniProt O88457 (whole entry, looked up): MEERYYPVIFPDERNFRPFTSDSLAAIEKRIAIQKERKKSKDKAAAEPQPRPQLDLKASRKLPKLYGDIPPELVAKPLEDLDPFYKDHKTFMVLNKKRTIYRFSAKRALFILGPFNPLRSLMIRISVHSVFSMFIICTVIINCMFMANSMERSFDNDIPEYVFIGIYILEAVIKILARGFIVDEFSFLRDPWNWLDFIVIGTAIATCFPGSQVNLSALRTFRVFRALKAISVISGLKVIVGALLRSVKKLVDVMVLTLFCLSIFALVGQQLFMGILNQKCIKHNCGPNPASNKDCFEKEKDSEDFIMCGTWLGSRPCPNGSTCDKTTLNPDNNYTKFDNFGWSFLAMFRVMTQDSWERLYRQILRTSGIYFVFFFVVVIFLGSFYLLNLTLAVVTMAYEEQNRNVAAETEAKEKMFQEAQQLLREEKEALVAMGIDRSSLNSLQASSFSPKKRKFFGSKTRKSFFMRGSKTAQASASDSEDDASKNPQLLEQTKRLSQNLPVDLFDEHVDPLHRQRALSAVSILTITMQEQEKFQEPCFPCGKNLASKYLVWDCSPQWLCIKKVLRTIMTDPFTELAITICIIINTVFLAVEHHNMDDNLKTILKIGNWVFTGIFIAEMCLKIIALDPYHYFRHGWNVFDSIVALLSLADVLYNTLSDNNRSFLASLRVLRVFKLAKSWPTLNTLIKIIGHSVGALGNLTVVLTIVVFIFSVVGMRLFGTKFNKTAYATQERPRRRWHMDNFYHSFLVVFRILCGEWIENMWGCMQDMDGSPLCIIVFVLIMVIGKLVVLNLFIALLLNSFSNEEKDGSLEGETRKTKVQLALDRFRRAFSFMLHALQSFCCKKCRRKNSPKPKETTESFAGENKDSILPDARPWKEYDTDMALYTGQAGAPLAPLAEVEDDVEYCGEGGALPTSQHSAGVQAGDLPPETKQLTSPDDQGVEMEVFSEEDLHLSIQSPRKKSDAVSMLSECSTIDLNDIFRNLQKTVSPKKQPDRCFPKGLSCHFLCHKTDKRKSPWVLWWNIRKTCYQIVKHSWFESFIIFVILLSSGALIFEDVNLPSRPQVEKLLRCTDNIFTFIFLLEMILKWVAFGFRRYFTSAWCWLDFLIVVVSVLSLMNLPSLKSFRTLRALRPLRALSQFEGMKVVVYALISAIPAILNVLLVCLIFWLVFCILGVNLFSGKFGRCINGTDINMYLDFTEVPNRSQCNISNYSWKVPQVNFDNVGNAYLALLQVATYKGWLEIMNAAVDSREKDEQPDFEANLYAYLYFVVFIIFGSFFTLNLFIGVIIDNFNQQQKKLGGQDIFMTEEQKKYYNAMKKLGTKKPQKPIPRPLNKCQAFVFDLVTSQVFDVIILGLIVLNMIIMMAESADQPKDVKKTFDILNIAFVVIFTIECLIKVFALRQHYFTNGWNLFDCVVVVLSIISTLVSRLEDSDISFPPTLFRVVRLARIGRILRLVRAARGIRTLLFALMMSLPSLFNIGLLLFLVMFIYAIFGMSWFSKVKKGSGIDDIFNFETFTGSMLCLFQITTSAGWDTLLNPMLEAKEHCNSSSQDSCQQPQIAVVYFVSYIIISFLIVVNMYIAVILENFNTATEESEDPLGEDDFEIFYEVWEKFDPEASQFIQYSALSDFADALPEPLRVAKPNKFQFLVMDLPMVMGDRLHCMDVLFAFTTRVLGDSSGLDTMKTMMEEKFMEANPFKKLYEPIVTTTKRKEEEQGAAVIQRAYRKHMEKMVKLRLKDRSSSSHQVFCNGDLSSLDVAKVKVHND
Sequence of UniProt P00811 (whole entry, looked up): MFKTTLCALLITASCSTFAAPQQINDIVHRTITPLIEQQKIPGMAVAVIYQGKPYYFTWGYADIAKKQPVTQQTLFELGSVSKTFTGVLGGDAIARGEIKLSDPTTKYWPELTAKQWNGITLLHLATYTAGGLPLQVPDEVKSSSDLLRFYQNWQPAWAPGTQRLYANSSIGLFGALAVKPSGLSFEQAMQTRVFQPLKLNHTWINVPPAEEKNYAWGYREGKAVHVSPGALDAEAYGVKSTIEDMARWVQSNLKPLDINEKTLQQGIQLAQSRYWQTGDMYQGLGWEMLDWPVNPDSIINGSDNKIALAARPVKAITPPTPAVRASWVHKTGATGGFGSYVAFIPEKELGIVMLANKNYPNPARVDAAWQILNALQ
Sequence of UniProt Q9Y478 (whole entry, looked up): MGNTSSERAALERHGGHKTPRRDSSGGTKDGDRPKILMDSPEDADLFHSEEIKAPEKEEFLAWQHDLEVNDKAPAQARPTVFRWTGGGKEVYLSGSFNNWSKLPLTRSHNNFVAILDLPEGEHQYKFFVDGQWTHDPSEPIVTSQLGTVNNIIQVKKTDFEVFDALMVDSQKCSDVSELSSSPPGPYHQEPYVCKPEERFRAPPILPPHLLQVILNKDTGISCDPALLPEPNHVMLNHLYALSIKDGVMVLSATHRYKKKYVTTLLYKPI
Sequence of UniProt P61981 (whole entry, looked up): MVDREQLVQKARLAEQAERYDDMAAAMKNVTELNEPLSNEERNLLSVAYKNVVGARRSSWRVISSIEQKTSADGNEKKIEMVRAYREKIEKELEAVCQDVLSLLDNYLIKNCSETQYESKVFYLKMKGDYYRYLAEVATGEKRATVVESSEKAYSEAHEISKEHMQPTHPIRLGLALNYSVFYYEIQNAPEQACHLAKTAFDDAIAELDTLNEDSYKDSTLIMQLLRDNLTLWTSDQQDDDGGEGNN
Sequence of UniProt Q6GIL5 (whole entry, looked up): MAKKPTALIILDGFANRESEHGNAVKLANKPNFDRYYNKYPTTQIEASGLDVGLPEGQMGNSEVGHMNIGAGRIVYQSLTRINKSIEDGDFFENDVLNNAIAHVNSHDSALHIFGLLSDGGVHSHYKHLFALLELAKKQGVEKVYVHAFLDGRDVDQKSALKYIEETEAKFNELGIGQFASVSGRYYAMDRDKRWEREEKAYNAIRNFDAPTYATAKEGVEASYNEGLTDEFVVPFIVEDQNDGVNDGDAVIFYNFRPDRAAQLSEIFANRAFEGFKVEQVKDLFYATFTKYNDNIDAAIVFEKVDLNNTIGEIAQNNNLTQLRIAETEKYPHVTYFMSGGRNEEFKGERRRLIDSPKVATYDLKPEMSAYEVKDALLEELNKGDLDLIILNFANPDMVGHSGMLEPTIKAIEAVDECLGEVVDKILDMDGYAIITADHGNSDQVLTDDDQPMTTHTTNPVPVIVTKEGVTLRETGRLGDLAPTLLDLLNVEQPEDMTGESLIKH
Sequence of UniProt P56817 (whole entry, looked up): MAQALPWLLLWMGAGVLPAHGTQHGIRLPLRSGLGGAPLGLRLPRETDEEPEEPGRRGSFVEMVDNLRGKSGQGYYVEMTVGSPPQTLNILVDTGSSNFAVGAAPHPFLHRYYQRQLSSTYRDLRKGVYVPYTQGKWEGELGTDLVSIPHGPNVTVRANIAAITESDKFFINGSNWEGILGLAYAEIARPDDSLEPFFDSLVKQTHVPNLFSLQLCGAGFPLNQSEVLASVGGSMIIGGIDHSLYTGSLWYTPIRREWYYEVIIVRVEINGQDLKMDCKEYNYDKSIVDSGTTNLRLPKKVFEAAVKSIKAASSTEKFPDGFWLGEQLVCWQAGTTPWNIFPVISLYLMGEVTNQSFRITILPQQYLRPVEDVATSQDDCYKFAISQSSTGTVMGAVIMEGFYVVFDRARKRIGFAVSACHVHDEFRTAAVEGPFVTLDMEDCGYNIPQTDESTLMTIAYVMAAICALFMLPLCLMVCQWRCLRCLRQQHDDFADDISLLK
Sequence of UniProt Q9BXA7 (whole entry, looked up): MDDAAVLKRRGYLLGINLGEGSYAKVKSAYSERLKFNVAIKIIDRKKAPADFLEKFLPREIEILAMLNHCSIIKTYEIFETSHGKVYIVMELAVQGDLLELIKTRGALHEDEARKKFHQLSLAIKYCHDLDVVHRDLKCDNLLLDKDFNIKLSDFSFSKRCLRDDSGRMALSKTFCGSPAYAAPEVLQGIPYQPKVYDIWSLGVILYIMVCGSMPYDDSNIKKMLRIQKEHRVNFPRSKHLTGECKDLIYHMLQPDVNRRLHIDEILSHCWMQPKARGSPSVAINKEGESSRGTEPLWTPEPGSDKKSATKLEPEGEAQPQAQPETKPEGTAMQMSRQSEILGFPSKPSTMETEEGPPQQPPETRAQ

Structure (SMILES) | tested on | assay | system | conditions | scale | endpoint | result
Cc1ccc(Oc2nc3cc(-c4ccc5c(ccn5C)c4)c(Cl)cc3[nH]2)cc1C(=O)O | PRKAA1/PRKAB1, phosphorylated; with gamma1 (Homo sapiens, UniProt Q13131+Q9Y478) | binding, biolayer interferometry | – | α1β1γ1 complex | – | koff | 0.0062 ± 0.0012 s⁻¹
CC(=O)N[C@H]1[C@@H](OP(=O)(O)OP(=O)(O)OC/C=C(/C)CC/C=C(/C)CC/C=C(/C)CC/C=C(/C)CC/C=C(/C)CC/C=C(/C)CC/C=C(/C)CC/C=C(/C)CC/C=C(\C)CC/C=C(\C)CCC=C(C)C)O[C@H](CO)[C@@H](O)[C@@H]1O[C@H](C)C(=O)N[C@@H](C)C(=O)N[C@H](CCC(=O)N[C@@H](CCCCNC(=O)OCCCCCCNC(=S)Nc1ccc(NS(=O)(=O)c2cccc3c(N(C)C)cccc23)cc1)C(=O)N[C@H](C)C(=O)N[C@H](C)C(=O)O)C(=O)O | UDP-N-acetylglucosamine--N-acetylmuramyl-(pentapeptide) pyrophosphoryl-undecaprenol N-acetylglucosamine transferase (murG, Mycolicibacterium smegmatis, UniProt A0R016) | substrate | – | together with: UDP-GlcNAc 93.8 µM | – | Km | 36 ± 5 µM
N=C(N)NCCC[C@H](NC(=O)CNC(=O)CNC(=O)[C@H](CCCNC(=N)N)NC(=O)[C@H](Cc1ccc(O)cc1)NC(=O)[C@H](Cc1c[nH]c2ccccc12)NC(=O)[C@H](CCCNC(=N)N)NC(=O)[C@@H](N)Cc1c[nH]c2ccccc12)C(=O)N[C@@H](Cc1ccc(O)cc1)C(=O)N[C@@H](Cc1c[nH]c2ccccc12)C(=O)N[C@@H](CCCNC(=N)N)C(=O)N[C@@H](Cc1c[nH]c2ccccc12)C(N)=O (single isomer, unassigned) | Holliday junction DNA | EMSA | – | – | baseline: over apparent KD | supershift concentration ratio | ≥ 10 fold
CS(C)(=O)=Nc1ccc(-c2ccc(-c3nc4cc(O[C@@H]5CO[C@H]6[C@@H]5OC[C@H]6O)[nH]c4cc3F)cc2)cc1 | PRKAA1/PRKAB1, with gamma3 (Homo sapiens, UniProt Q13131+Q9Y478) | enzyme activity, activator | – | 60 min, 50% above basal activity, together with: ATP 50 µM | – | EC150 | 0.398 nM
O=C(/C=C/c1ccccc1)c1ccc(N2CCNCC2)cc1 | Beta-secretase 1 (BACE1, Homo sapiens, UniProt P56817) | enzyme activity, inhibitor, fluorescence | – | 10 µM | – | remaining activity | 90.6%
CCCC[C@H](NC(=O)[C@H](CC(=O)O)NC(=O)[C@H](CC(=O)O)NC(=O)[C@H](CCC(=O)O)NC(=O)[C@H](Cc1ccc(OP(=O)(O)O)cc1)NC(=O)[C@H](CC(=O)O)NC(=O)[C@H](CC(=O)O)NC(=O)[C@H](CCC(=O)O)NC(=O)[C@H](CC(C)C)NC(=O)[C@H](CCC(=O)O)NC(=O)[C@H](CCC(=O)O)NC(=O)c1ccc2c(c1)C1(OC2=O)c2ccc(O)cc2Oc2cc(O)ccc21)C(=O)N[C@@H](CCC(=O)O)C(=O)N[C@@H](CCC(=O)O)C(N)=O | PTPN1 (Homo sapiens, UniProt P18031) | substrate | – | – | – | Km | 0.77 ± 0.25 µM
CC(=O)NC(Cc1ccc(Br)c(Cl)c1)C(=O)N[C@@H](C)C(=O)N1CCC[C@H]1C(=O)N1CCC[C@H]1C(=O)N[C@@H](CCC(=O)O)C(=O)N[C@@H](Cc1c[nH]cn1)C(=O)N[C@@H](CO)C(=O)N[C@H](C(=O)N[C@@H](C)C(N)=O)[C@@H](C)OP(=O)(O)O (stereo partly shown) | TSSK1B (Homo sapiens, UniProt Q9BXA7) | enzyme activity, inhibitor | – | 10 µM | – | inhibition | 0.18%
CC(C)P(=S)(NP(=[Se])(C(C)C)C(C)C)C(C)C | Alpha-amylase (Bacillus subtilis, UniProt P00691) | binding, FRET | – | 298 K | – | energy transfer efficiency | 36.9%
N=C(N)NCCC[C@@H]1NC(=O)[C@H](CCCNC(=N)N)NC(=O)[C@H](NC(=O)[C@H](Cc2ccccc2)NC(=O)CNC(=O)CNC(=O)[C@H](Cc2ccccc2)NCc2ccccc2)CC(=O)NC[C@@H](C(=O)N[C@@H](CCCNC(=N)N)C(=O)N2CCC[C@H]2C(=O)N[C@@H](CCCCN)C(N)=O)NC1=O | Oprk1 | binding | – | – | baseline: zyklophin | relative affinity | 1.4
COC(=O)N(C)[C@@H](Cc1ccccc1)C(=O)N[C@@H](Cc1ccccc1)C(=O)N[C@@H](Cc1ccccc1)C(=O)N[C@@H](CCCNC(=N)N)C(=O)N[C@@H](CC(C)C)C(=O)N[C@@H](CCCNC(=N)N)C(=O)N[C@@H](CCCNC(=N)N)C(=O)N[C@H](C)C(=O)N[C@@H](CCCNC(=N)N)C(=O)N1CCC[C@H]1C(=O)N[C@@H](CCCCN)C(N)=O | Oprk1 | antagonist | – | together with: dynorphin A(1-13)NH2 | – | pA2 | 8.07
CC(C)[C@@H]1NC(=O)[C@H](CCC(N)=O)NC(=O)[C@@H](Cc2ccc(O)cc2)NC(=O)CSC[C@@H](C(N)=O)NC(=O)[C@H](CC(=O)O)NC(=O)[C@H](CCC(=O)O)NC(=O)[C@H](Cc2c[nH]c3ccccc23)NC(=O)[C@@H]2CCCN2C(=O)[C@H](CO)N(C)C(=O)[C@H](C)NC(=O)[C@H](Cc2c[nH]c3ccccc23)NC(=O)[C@H](Cc2c[nH]c3ccccc23)NC(=O)[C@H](C(C)C)NC(=O)[C@H]([C@@H](C)O)NC1=O | 2,3-bisphosphoglycerate-independent phosphoglycerate mutase (gpmI, Staphylococcus aureus, UniProt Q6GIL5) | thermal stability, thermal shift | – | – | – | Tm | 62.4 °C
O=C(N=P12CN3CN(CN(C3)C1)C2)c1ccccn1.[Cl][Pt][Cl] | Albumin (ALB, Homo sapiens, UniProt P02768) | adduct reversibility, circular dichroism | – | concentration not given, 1 h, together with: 3-fold citric acid | – | CD band decrease | 50%
CC(=O)N[C@H]1[C@@H](OC[C@H](NC(=O)CNC(=O)[C@@H]2CCCN2C(=O)[C@H](C)NC(=O)[C@@H]2CCCN2C(=O)[C@@H](N)CCCNC(=N)N)C(=O)N[C@H](C(=O)N[C@@H](C)C(=O)N2CCC[C@H]2C(=O)N2CCC[C@H]2C(=O)N[C@@H](C)C(=O)N[C@@H](Cc2c[nH]cn2)C(=O)NCC(=O)O)[C@@H](C)O[C@H]2O[C@H](CO)[C@H](O)[C@H](O)[C@H]2NC(C)=O)O[C@H](CO)[C@H](O)[C@@H]1O | anti-MUC1 Fab 14 A wild type, murine | SPR | – | – | baseline: Glyco-T | ka increase | 1.8 fold
COC[C@H]1CC[C@@H]2/C1=C\[C@@]1(C)CCC(C(C)C)=C1[C@@H](O[C@H]1O[C@H](CO)[C@@H](O)[C@H](O)[C@H]1O)[C@H](O)[C@@H]2C | 14-3-3 protein gamma, with p53 (YWHAG, Homo sapiens, UniProt P61981) | protein-peptide binding, fluorescence anisotropy and ITC | – | – | – | complex stabilization | no effect
CN[C@](C)(C[18F])C(=O)O | A549 tumour model | – | host not given, lung | 15 min, tumour-bearing | – | tracer uptake | 3.3 %ID/g
COc1ccccc1-c1nc2sc3c(c2c(=O)o1)CCC3 | Genome polyprotein, 3C protease (rhinovirus B14, UniProt P03303) | protease activity, SAMDI-MS | – | – | – | Hill slope | 1.08
C=C(C)C(=O)Oc1ccc(C(C)(C)c2ccc(OC(=O)C(=C)C)cc2)cc1 | Estrogen receptor (ESR1, Homo sapiens, UniProt P03372) | reporter gene, agonist | MVLN | 24 h | – | maximal effect concentration | 10 µM
CC(C)[C@H]1CC[C@@H](N2CC[C@@](C)(c3cccc(O)c3)[C@@H](C)C2)CC1 | OPRK1 (Homo sapiens, UniProt P41145) | agonist | – | – | – | efficacy | 0%
Nc1ncc2ncn([C@@H]3O[C@@H]4COP(=O)(O)O[C@H]5[C@@H](O)[C@H](n6cnc7cnc(N)nc76)O[C@@H]5COP(=O)(O)O[C@H]4[C@H]3O)c2n1 | ydaO riboswitch wild type (Bacillus subtilis) | competition gel-shift | – | concentration not given | baseline: c-di-AMP, higher = weaker binding | binding affinity fold loss | > 4.5e+06
O=C(O)C1C2C=CC(C2)C1C(O)=S (stereo not shown) | ampC | – | – | – | – | ligand efficiency | 0.33
C[C@]1(COC(=O)c2ccc(O)c(O)c2)[C@H](C(=O)O)N2C(=O)/C(=C/c3ccccn3)[C@H]2S1(=O)=O | OXA-48 (Klebsiella pneumoniae, UniProt Q6XEC0) | enzyme activity, inhibitor, absorbance | – | – | – | kinact | 0.045 s⁻¹
CCN(Cc1ccccc1)C(=O)CCc1nc(CN2CCN(C(=O)Cc3ccc(OC)c(OC)c3)CC2)no1 | Sodium channel protein type 11 subunit alpha (Scn11a, Rattus norvegicus, UniProt O88457) | sodium current, whole-cell patch clamp | rat DRG neurons | 10 µM | – | inactivation V1/2 | -101 mV
CC(C)Oc1ccc(B(O)O)c(F)n1 | ampC | – | – | – | – | ligand efficiency | 0.61
CC[C@H](C)[C@H](NC(=O)[C@H](CCCNC(=N)N)NC(=O)[C@H](CO)NC(=O)[C@@H](NC(=O)[C@H](CC(=O)O)NC(=O)[C@H](CC(=O)O)NC(=O)CCCCCNC(=O)c1ccc2c(c1)C(=O)OC21c2ccc(O)cc2Oc2cc(O)ccc21)[C@@H](C)O)C(=O)N[C@@H](CCC(=O)O)C(=O)N[C@@H](CCC(=O)O)C(=O)N[C@H](C(=O)N[C@@H](CC(=O)O)C(=O)O)C(C)C | DnaJ homolog subfamily C member 7 (Homo sapiens, UniProt Q99615) | fluorescence polarization | – | pH 7.4 | baseline: wild-type Hsp90alpha tracer | affinity increase | ≥ 2 fold
COc1ccc(Nc2c3c(nc4ccccc24)CCC(C)C3)nc1 (stereo not shown) | ache (Electrophorus electricus, UniProt O42275) | enzyme activity, inhibitor, Ellman | – | 100 µM | – | inhibition | 23.8%

Repeated from above:
Structure (SMILES) | tested on | assay | system | conditions | scale | endpoint | result
CC(C)Oc1ccc(B(O)O)c(F)n1 | ampC | – | – | – | – | ligand efficiency | 0.61
O=C(/C=C/c1ccccc1)c1ccc(N2CCNCC2)cc1 | Beta-secretase 1 (BACE1, Homo sapiens, UniProt P56817) | enzyme activity, inhibitor, fluorescence | – | 10 µM | – | remaining activity | 90.6%
